Results gathered from unrelated publications.
Every numbered part comes from another study and shows a few of its results, in no order.
Chain of UniProt P50613 (whole entry, looked up): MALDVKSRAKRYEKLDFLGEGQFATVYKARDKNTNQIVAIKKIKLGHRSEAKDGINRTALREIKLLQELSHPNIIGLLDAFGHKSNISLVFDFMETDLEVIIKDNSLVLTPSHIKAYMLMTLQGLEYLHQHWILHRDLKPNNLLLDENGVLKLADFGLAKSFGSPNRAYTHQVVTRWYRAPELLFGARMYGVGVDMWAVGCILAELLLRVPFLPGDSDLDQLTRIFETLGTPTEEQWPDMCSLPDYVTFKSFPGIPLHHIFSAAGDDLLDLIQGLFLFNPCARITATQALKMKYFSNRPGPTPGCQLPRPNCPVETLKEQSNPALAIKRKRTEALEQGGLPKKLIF
Chain of UniProt Q8NI60 (whole entry, looked up): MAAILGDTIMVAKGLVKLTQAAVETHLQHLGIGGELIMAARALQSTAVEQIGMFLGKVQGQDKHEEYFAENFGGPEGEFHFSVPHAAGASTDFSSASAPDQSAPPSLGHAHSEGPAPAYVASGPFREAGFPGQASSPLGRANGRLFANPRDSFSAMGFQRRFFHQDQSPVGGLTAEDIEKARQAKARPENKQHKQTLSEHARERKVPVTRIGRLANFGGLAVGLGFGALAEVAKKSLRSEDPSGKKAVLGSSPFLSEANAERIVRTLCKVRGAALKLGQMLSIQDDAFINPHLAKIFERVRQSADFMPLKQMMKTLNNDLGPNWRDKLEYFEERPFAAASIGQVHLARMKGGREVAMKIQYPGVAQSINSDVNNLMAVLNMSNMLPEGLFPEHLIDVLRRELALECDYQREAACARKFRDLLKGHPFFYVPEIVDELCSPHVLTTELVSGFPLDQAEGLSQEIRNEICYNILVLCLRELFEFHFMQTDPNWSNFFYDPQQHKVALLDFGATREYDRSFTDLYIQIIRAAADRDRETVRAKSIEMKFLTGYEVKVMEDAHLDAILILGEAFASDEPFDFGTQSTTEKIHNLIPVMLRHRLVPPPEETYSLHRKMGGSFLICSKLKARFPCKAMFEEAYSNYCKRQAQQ
Chain of UniProt P06239 (whole entry, looked up): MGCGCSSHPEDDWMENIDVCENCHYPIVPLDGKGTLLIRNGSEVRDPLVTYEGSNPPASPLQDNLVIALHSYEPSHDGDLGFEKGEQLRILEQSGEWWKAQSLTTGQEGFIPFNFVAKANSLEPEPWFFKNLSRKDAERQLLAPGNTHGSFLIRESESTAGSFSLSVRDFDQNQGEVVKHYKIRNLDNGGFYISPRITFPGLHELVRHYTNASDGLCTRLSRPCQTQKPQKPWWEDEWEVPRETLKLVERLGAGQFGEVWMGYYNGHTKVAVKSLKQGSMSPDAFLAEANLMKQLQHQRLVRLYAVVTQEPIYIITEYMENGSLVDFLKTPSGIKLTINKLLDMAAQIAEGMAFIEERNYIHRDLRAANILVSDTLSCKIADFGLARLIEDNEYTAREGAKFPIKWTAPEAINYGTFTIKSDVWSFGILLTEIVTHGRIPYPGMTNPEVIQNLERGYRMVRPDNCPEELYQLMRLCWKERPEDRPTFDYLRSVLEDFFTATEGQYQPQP
Chain of UniProt P36897 (whole entry, looked up): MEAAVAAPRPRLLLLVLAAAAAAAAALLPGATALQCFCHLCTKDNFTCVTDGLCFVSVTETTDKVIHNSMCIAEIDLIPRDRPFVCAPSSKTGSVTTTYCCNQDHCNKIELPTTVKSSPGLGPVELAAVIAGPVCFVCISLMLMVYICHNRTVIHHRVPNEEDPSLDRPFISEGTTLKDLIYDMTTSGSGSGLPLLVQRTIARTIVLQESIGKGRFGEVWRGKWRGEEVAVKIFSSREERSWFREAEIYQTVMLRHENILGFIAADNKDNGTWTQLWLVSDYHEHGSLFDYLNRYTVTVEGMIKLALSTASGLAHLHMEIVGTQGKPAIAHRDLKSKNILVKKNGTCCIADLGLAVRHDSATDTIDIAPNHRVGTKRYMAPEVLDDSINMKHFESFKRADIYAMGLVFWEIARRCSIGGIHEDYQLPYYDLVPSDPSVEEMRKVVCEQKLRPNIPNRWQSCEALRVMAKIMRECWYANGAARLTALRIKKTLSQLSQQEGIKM
Chain of UniProt Q15746 (whole entry, looked up): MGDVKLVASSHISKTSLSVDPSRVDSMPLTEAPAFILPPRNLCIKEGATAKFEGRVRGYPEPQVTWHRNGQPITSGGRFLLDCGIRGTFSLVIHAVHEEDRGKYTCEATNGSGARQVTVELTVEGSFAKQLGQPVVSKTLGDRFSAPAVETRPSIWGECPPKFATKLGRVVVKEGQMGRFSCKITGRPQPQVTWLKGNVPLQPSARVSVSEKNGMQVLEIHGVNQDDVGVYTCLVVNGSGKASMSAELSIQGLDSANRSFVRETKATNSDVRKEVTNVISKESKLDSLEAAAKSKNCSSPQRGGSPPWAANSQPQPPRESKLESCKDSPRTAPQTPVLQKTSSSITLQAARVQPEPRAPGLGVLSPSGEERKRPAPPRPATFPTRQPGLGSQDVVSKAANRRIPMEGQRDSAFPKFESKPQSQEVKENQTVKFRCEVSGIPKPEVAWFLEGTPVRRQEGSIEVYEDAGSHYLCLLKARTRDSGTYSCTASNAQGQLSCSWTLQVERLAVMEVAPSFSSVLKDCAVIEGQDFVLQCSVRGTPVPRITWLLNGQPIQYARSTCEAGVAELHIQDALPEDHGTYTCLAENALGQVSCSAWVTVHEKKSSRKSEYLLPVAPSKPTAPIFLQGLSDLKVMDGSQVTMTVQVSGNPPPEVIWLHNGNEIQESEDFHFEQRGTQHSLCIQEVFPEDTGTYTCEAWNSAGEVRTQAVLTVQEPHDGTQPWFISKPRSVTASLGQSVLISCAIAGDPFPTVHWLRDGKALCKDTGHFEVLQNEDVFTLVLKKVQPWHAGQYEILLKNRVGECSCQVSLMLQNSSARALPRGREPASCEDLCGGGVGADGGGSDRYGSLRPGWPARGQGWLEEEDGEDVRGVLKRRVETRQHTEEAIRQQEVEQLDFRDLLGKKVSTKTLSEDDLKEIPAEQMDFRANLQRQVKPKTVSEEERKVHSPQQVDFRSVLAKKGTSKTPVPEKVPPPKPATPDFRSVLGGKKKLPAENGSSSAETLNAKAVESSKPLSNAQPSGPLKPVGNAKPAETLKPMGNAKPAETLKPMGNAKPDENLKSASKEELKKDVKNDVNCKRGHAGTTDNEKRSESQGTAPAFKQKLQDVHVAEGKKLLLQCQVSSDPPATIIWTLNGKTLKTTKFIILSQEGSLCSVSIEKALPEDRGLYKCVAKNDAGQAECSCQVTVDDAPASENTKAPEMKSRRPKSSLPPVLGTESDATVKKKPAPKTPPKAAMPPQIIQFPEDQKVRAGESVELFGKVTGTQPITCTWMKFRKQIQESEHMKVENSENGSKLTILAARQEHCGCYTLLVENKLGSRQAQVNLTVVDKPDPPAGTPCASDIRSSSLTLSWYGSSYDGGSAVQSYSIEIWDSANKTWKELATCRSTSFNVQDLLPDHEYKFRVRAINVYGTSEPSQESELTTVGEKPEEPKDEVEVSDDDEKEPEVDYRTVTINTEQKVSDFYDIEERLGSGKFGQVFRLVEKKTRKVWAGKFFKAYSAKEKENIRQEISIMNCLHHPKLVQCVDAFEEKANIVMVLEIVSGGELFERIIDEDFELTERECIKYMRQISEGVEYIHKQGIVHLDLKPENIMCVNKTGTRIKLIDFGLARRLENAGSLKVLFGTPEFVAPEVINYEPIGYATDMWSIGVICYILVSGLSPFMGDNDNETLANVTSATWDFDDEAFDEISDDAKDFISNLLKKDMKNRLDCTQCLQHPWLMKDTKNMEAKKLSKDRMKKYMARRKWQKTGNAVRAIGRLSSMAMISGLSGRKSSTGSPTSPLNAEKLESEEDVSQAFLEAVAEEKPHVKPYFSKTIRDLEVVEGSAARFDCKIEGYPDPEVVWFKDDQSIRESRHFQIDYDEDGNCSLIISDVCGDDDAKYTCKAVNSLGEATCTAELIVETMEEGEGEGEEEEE
Chain of UniProt Q8IWQ3 (whole entry, looked up): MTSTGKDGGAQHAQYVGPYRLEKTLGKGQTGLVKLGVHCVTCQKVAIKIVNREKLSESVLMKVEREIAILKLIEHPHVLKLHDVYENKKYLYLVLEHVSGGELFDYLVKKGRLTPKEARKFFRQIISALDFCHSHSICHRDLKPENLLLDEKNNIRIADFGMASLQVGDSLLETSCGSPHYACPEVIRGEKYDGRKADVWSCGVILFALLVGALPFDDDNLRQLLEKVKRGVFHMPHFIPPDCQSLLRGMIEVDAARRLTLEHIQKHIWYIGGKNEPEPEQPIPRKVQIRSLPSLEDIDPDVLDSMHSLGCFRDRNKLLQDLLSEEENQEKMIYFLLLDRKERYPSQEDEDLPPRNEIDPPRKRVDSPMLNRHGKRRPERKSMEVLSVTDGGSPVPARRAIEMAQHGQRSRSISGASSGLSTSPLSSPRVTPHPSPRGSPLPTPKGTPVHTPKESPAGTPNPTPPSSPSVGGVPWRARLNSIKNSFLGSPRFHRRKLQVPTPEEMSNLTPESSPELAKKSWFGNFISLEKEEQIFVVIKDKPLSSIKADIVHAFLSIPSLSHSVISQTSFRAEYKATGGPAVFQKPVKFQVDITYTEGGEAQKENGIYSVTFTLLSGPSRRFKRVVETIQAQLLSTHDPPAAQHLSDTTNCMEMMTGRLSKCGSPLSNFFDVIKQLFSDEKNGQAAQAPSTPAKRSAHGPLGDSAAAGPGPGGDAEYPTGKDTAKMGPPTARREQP

Series 1 — read-out: enzyme activity; action: inhibitor; concentration: 0.5 µM; relative to: control
Target: Serine/threonine-protein kinase 16 (STK16, Homo sapiens, UniProt O75716)
Chain of UniProt O75716 (whole entry, looked up): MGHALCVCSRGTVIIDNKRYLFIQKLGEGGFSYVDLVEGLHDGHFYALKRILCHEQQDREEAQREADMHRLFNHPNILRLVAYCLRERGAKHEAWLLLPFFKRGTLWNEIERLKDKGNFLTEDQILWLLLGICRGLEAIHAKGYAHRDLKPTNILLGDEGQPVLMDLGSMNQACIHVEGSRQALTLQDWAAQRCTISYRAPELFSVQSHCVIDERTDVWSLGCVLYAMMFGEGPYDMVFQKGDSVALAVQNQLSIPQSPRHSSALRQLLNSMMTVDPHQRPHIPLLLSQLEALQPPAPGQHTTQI
| Structure (SMILES) | remaining activity |
| --- | --- |
| COc1ccc(-c2cnc3c(-c4ccsc4)cnn3c2)cc1 | 66.9% |
| CCC(=O)Nc1ccc2ncnc(Nc3cccc(Br)c3)c2c1 | 99.6% |
| O=C1NC(=O)/C(=C/c2ccc3nccnc3c2)S1 | 91.9% |

Series 2 — technique: protein binding microarray; form: double-stranded DNA, one strand shown; medium: in vitro; concentration: not given; relative to: not given; direction: higher = stronger binding
Target: Histone acetyltransferase KAT6A, winged helix 2, GST fusion (KAT6A, Homo sapiens, UniProt Q92794, residues 85-181)
Setting: 8-mer, flanks averaged, mean of 2 arrays, mostly near background
Target sequence (chain): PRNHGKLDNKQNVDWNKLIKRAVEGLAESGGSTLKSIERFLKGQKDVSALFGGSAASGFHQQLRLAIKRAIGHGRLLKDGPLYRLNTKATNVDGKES
| Oligonucleotide | E-score |
| --- | --- |
| AAAGCACC | 0.0476 |
| GCGCGTAA | 0.0395 |
| CCAAGGCA | 0.101 |
| AAAAAGAA | 0.0684 |
| CCAGACTA | 0.0602 |
| TCTCCCAA | 0.0176 |
| GAAATTGA | 0.0274 |
| AGGATGAT | -0.00795 |

Series 3 — organism: Saccharomyces cerevisiae; read-out: peptide binding; technique: yeast competitive growth sequencing; form: peptide; strain: cyclin-Cln2 fusion strain; concentration: concentration not given; setting: Cln2 background subtracted; direction: direction not given
| Molecule | binding score |
| --- | --- |
| REPARRLFLFGEE | 0.189 |
| TSSAQRRLEIPSGGAD | 1.02 |
| EPKTLFLGAGDFQF | 0.675 |
| NCKKRRALDFLSRLPL | 0.326 |
| GPVKLEFDVSDGAT | -0.0241 |
| ARKRLELGNLGNPQ | -0.722 |
| SDSTVTKLDFDLEP | 0.357 |
| VLLKRLQDVVSERANH | 0.181 |

Series 4 — Compound: c1ccc(N2CCN(Cc3nc4ccccc4[nH]3)CC2)nc1; technique: competition with immobilised ligand; concentration: 1 µM
| target | read-out | remaining binding [%] |
| --- | --- | --- |
| COQ8A (Homo sapiens, UniProt Q8NI60) | cell-free assay | 98 |
| TNK1 (Homo sapiens, UniProt Q13470) | binding | 59 |
| WEE2 (Homo sapiens, UniProt P0C1S8) | binding | 100 |
| BRSK2 (Homo sapiens, UniProt Q8IWQ3) | binding | 100 |
| MYLK (Homo sapiens, UniProt Q15746) | binding | 80 |
| ACVRL1 (Homo sapiens, UniProt P37023) | binding | 95 |
| LCK (Homo sapiens, UniProt P06239) | binding | 100 |
| PIK3CA (Homo sapiens, UniProt P42336, M1043I) | cell-free assay | 87 |
| LIM domain kinase 2 (LIMK2, Homo sapiens, UniProt P53671) | binding | 100 |
| PRKCI (Homo sapiens, UniProt P41743) | cell-free assay | 97 |
| FRK (Homo sapiens, UniProt P42685) | cell-free assay | 100 |
| TGFBR1 (Homo sapiens, UniProt P36897) | cell-free assay | 97 |
| CAMK4 (Homo sapiens, UniProt Q16566) | binding | 88 |
| FLT3 (Homo sapiens, UniProt P36888, N841I) | binding | 100 |
| FLT3 (Homo sapiens, UniProt P36888, F691L/ITD) | binding | 100 |
| CDK7 (Homo sapiens, UniProt P50613) | binding | 48 |
| CSNK1G3 (Homo sapiens, UniProt Q9Y6M4) | cell-free assay | 100 |

Series 5 — species: human; medium: microsomes or S9; concentration: 2 µM; time: 0.5 h
| Compound | remaining compound [%] |
| --- | --- |
| O=S1(=O)CCC(S(=O)(=O)N2CCN(c3ccccc3)CC2)C1 (stereo not drawn) | 94.7 |
| COc1cc(OC)c(OC)cc1CNC(C)(C)CC(C)(C)C | 81.4 |
| Oc1cc(Nc2cccc(Br)c2)nc(O)n1 | 76.5 |

A few entries again (series 3):
| Molecule | binding score |
| --- | --- |
| ARKRLELGNLGNPQ | -0.722 |
| SDSTVTKLDFDLEP | 0.357 |
| VLLKRLQDVVSERANH | 0.181 |
